Published values from different studies.
Lines come from different studies, so protocols differ. ± gives the spread as reported.

N.N.O=C([O-])C1(C(=O)[O-])CCC1.[Pt+2]  IC50 (cell viability; patient-derived ovarian cancer organoids; 96 h): 49.4 µM
Cc1c(C)c2c(c(C)c1O)CCC(C)(C(=O)O)O2 (centres unmarked)  IC50 (DMPD radical scavenging): 4.33 µg/mL
Sc1nc2ccccc2[nH]1  IC50 (CoA-CPM signal reduction, CPM fluorescence thiol; cell-free biochemical; assay interference counter-screen, with: CoA replacing acetyl-CoA): > 125 µM
C[C@H]1O[C@H](O[C@H]2CC[C@H](n3ccc(NC(=O)c4ccc(NC(=O)[C@@](C)(N)CO)cc4)nc3=O)O[C@@H]2C)[C@H](O)[C@@H](O)[C@@H]1N(C)C  IC50 (transcription/translation; Escherichia coli S30 extract): 0.207 ± 0.099 µM
CC(C)=CCCC1(C)CC=NO1 (centres unmarked)  IC50 (pH gradient; Escherichia coli inverted membrane vesicles): > 1000 µM
CN(CC[C@H](N)CC(=O)N[C@H]1C=C[C@H](n2ccc(N)nc2=O)O[C@@H]1C(=O)O)C(=N)N  IC50 (transcription/translation; Escherichia coli S30 extract): 0.002 ± 0.001 µM
Nc1nnc(S)[nH]1  IC50 (CoA-CPM signal reduction, CPM fluorescence thiol; cell-free biochemical; assay interference counter-screen, with: CoA replacing acetyl-CoA): > 125 µM
ON=C1C2CC3CC(C2)CC1C3  IC50 (pH gradient; Escherichia coli inverted membrane vesicles): > 1000 µM
COc1cc(NC(C)CCCN)c2ncccc2c1 (centres unmarked)  IC50 (angiogenesis; zebrafish): 4 µM
COc1ccc(O)c(C(C)(C)C)c1  IC50 (DMPD radical scavenging): 12 µg/mL
CC(C)=CCC/C(C)=C/C=N\O  IC50 (pH gradient; Escherichia coli inverted membrane vesicles): > 1000 µM
